Results collected from several papers.
Numbered parts are unrelated; each lists some results of a single study. Positions count from the first letter of the parent shown.

Block 1
Target: CCND3, cyclin fold, Cln2 fusion (human)
Method: yeast growth competition, sequencing
Sample: yeast
Setting: weak parent motif
Reference: not given
Direction: higher = stronger binding
Starting sequence: RBL1 docking peptide (human); GSAKRRLFGEDPP
Variant | normalised enrichment score
G1M | -0.0168
S2F | 0.0243
L7T | 0.0506
A3P | 0.107
R5L | 0.118
G9V | 0.181
G1T | 0.138
G9F | 0.24
G9Q | 0.172
D11C | 0.157
P12V | 0.139
D11Y | 0.237
G1Q | 0.121
E10W | 0.113
F8V | 0.125
L7K | 0.168
R6E | 0.146
G9I | 0.142
F8I | 0.155
R6V | 0.147
K4V | 0.171
F8C | 0.142
K4M | 0.13
E10G | 0.0411
G9C | 0.125

Block 2
Target: TAR DNA-binding protein 43, full length, His tag (TARDBP, Homo sapiens, UniProt Q13148, residues 1-414)
Method: RNA Bind-n-Seq
Form: RNA
Sample: in vitro
Concentration: 20 nM
Setting: 6-mer, flanks averaged, single round
Together with: 150 mM LiCl
Reference: input library
Direction: higher = stronger binding
Strand | 6-mer enrichment (R)
AAUAUA | 0.977
UGAGGA | 1.06
CGUUAC | 0.876
UCUGAG | 0.891
UGACCU | 0.913
UUCUAA | 0.91
ACAAUG | 0.879
GAUAGA | 0.935
AUGCUA | 0.909
GUUUAG | 1.15
UCUAUC | 0.875
GGAAGG | 1.18
AGUUCU | 0.869
CCUGGC | 0.935
CAGCUG | 0.891
GGCGGA | 1.11
UUUCAC | 0.94
CCUGUA | 0.949
UAUCUG | 0.898
UUCUAC | 0.879

Block 3
Target: RING finger protein unkempt homolog, zinc fingers 1-6, SBP tag (UNK, Homo sapiens, UniProt Q9C0B0, residues 30-357)
Sequence of UniProt Q9C0B0 (30-357, looked up): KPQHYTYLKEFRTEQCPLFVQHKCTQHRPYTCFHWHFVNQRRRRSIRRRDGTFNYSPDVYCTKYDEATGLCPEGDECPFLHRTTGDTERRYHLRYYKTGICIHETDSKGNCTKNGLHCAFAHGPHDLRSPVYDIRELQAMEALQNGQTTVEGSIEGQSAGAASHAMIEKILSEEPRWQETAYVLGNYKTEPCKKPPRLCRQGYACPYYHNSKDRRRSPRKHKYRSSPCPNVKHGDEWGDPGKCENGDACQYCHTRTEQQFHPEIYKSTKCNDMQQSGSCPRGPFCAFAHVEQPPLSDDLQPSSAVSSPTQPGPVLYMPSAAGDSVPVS
Method: RNA Bind-n-Seq
Form: RNA
Sample: in vitro
Concentration: 100 nM
Setting: RNA with constant flanks, vertebrate orthologous sites, ends assumed
Reference: input RNA pool
Direction: higher = stronger binding
All sequences stand within: GGGAGUUCUACAGUCCGACGAUC … CAACAGAGGAUUGAGCAUCA
Strand | bound/input enrichment [ratio]
GAUUUGGACCUUGGAGCCGAACCAGGGAGCUAGCAAAAGUAAAGCAGACUUGUAAAAUUAUAGCCAUAUGCAGCUGCACAGCAACAGUACUACCACUAGCAGCUGUGUUAAAGUAUUUAU | 0.727
GCUCUAGUUCUUAACAACAGACACUCCAAAAAGAUUUAGAAAAAAGUUUACAACAUGAUCUAGUUUACGAAGAAGUCUUGUGCUGGAAUACUUUUUAAAAAGUAUUUUUGAAUACCAUCA | 0.763
UAUUGUACGUAGAGAAAAAAUUUUCCUUGACCCCAUUGUGAAAUUCCCUAGCAAUUUAUUUAGAAUCUUCAUUUUUCUCAUUCAAGCUCACUGUAUUAGUUAUUUUUAGCCCAUAAUUAA | 4.99
CAUCUCUCGUUUUAUAUGUCAAAAAAGGCUUUGAAUUUUUAAAAAAUUGCUAGUUUUGAUUAGCGCUAUCUUCAUGAAGUGUUACAACUCACCACAAACAGAUAUCUGUCUGAAUUACUU | 0.395
CCUCUAAACCCCAUUUCUUCUGUUUCAUAGUGUAGAAGUAUUCUUUUUCAGUUAUAUUAUUAGUGGACUUGUUUUAAUUUUAGGGAAAAUUUCAGUACAGAUACUGUGAGCUUACAUGGA | 1.31
UGAAAUAUGUAGAAAACAAUUUUCACUGAAUUCAUUGUCAAGUUUUUCCCUAGAAUUUUUUUUUGAAUUUUUGUUUUAUACAAGCUUGCUGUGUUGGUCAUUAUUAACCCACAAUUAAGA | 0.327
UAUUCAGACUCUUAAUAAAUUGCUCAGACUUUCUAAAGUUCACUUUGGAGGAUCCGCCCAUAGGAUGGUGUUGCCAUAUUGUUUUGUUCUGUUUUUUAAACUUGUGUACUGUGUCCAGAG | 0.583
AUGUGAAAAUCAUGUCUCUCAAUUGGAAAGGAAGGAGGAAAAGGUAGAUUGUAUCUACCACAGUGCAAUAGGCACAUAUUUGGUCUAAUAUUGAUGUUGCUAUUGUGACAUGCAAAUAUA | 0.624

Block 4
Target: ABI1, truncated, D143A, DHFR fusion (Arabidopsis thaliana)
Method: DHFR PCA, deep sequencing
Sample: yeast
Setting: methotrexate growth selection, single substitutions
Together with: (+)-ABA 17 µM
Reference: wild-type fitted maximum
Direction: higher = stronger binding
Starting sequence: PYL1, truncated, DHFR fusion (Arabidopsis thaliana); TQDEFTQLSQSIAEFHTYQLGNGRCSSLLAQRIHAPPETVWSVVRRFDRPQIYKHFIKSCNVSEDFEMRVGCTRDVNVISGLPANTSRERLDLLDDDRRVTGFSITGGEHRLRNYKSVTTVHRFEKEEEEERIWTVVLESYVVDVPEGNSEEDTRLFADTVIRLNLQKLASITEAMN
Variant | relative binding score
E127C | 84.2%
D3Y | 71.3%
R88N | 77.7%
V44W | -33.7%
D48C | 7.55%
S104R | 18.5%
M68I | 84.3%
R98T | 57.6%
E4Y | 71.6%
F15P | 5.64%
R123K | 105%
D95G | -10.2%

Block 5
Target: Prothrombin, mature alpha-thrombin (F2, Homo sapiens, UniProt P00734)
Method: aptamer microarray, sandwich
Form: DNA with 2'F-ANA
Sample: in vitro
Concentration: 200 nM
Setting: whole 15-mer aptamer, many near background
Together with: Cy3 exosite-II aptamer, 400 nM
Direction: higher = stronger binding
Strand: GGTTGGTGTGGTTGG
Modification | mean fluorescence intensity
2'F-ANA at 4 7 8 9 12 15 | 743 a.u.
2'F-ANA at 1 2 4 7 8 9 13 15 | 97.7 a.u.
2'F-ANA at 3 4 5 7 8 9 10 11 | 107 a.u.
2'F-ANA at 1 2 5 7 9 10 11 13 15 | 46.8 a.u.
2'F-ANA at 1 4 8 9 12 14 15 | 62.9 a.u.
2'F-ANA at 4 5 9 10 11 13 15 | 46.1 a.u.
2'F-ANA at 6 10 14 | 112 a.u.
2'F-ANA at 1 2 6 7 11 12 13 | 176 a.u.
2'F-ANA at 5 6 8 10 12 13 14 15 | 45.4 a.u.
2'F-ANA at 2 4 5 10 11 13 | 46.5 a.u.
2'F-ANA at 1 2 3 5 7 8 9 10 11 13 15 | 53.8 a.u.
2'F-ANA at 2 5 9 10 11 12 13 14 15 | 53.4 a.u.
2'F-ANA at 2 4 5 6 10 14 15 | 54.7 a.u.
2'F-ANA at 1 4 5 7 10 11 12 14 15 | 46.2 a.u.
2'F-ANA at 2 4 5 7 9 11 14 | 43.2 a.u.
2'F-ANA at 1 2 4 6 10 11 13 | 50.9 a.u.
2'F-ANA at 1 2 7 10 12 14 | 45.2 a.u.
2'F-ANA at 1 2 5 6 11 12 14 | 91.5 a.u.
2'F-ANA at 2 3 4 8 10 11 12 14 | 180 a.u.
2'F-ANA at 2 3 5 7 9 10 15 | 68 a.u.
2'F-ANA at 1 4 6 7 10 13 | 47.9 a.u.
2'F-ANA at 2 3 5 6 8 11 13 14 15 | 54 a.u.
2'F-ANA at 3 4 5 15 | 107 a.u.
2'F-ANA at 2 15 | 466 a.u.

Single results of other studies
Molecule | target | assay | system | conditions | how to read | endpoint | result
PhoQ, residues 284 288 289 292 302 303 SLCLSL | PhoP, residues 12 14 15 18 19 VQALL (Escherichia coli, UniProt P23836) | Sort-seq, measured: YFP reporter | E. coli | PhoQ-PhoP variant library, together with: 10 µM Mg2+ | reference: high Mg2+ state, higher = stronger signaling | fold induction | 1.5

Excerpt of the above (block 1):
Variant | normalised enrichment score
E10W | 0.113
K4M | 0.13
R6E | 0.146
F8V | 0.125
L7T | 0.0506
